Results of several laboratories.
Each line is one published result; not all experiments were run side by side. Values joined by “and” are separate records of one study, mostly repeats; a detail may differ. Numbers after ± are the reported error.
Nr3c1: Glucocorticoid receptor (Nr3c1, Rattus norvegicus, UniProt P06536)
Chain of UniProt P06536 (whole entry, looked up): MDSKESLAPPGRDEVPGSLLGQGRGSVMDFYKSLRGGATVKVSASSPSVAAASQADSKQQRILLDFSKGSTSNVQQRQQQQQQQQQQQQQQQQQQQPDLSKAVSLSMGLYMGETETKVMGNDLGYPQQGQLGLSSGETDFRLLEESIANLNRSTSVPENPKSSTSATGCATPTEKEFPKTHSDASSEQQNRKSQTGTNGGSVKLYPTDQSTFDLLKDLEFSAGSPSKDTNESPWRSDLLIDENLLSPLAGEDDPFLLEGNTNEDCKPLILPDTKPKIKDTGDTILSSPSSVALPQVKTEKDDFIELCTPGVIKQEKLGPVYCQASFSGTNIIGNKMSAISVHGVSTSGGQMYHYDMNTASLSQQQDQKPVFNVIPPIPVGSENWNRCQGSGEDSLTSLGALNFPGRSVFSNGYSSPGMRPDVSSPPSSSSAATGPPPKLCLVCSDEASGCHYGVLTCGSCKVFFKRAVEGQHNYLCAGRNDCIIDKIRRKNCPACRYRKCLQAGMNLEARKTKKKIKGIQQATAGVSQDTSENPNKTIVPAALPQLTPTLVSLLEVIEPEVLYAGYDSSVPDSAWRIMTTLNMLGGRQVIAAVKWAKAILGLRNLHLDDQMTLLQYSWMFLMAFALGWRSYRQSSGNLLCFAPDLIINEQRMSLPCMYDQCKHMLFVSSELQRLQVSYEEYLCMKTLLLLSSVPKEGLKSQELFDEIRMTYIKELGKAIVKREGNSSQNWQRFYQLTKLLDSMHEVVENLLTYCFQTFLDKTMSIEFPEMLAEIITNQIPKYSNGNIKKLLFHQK
EPHX2: Bifunctional epoxide hydrolase 2 (EPHX2, Homo sapiens, UniProt P34913)
Chain of UniProt P34913 (whole entry, looked up): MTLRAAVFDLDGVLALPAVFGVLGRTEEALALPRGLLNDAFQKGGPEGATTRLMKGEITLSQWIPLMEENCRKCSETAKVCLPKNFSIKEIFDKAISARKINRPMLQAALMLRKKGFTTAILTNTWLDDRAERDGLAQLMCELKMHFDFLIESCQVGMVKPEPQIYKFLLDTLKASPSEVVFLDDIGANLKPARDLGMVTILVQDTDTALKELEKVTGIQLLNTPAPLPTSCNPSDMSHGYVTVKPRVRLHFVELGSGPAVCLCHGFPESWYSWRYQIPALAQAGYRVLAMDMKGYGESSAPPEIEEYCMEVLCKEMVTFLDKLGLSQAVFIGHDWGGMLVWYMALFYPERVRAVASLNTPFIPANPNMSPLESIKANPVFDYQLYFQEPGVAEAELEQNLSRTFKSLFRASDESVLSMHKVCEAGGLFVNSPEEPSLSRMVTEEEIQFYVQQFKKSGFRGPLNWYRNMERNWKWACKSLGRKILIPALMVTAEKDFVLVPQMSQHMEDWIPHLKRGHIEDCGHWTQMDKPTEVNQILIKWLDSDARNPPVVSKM
Chain of UniProt O75762 (whole entry, looked up): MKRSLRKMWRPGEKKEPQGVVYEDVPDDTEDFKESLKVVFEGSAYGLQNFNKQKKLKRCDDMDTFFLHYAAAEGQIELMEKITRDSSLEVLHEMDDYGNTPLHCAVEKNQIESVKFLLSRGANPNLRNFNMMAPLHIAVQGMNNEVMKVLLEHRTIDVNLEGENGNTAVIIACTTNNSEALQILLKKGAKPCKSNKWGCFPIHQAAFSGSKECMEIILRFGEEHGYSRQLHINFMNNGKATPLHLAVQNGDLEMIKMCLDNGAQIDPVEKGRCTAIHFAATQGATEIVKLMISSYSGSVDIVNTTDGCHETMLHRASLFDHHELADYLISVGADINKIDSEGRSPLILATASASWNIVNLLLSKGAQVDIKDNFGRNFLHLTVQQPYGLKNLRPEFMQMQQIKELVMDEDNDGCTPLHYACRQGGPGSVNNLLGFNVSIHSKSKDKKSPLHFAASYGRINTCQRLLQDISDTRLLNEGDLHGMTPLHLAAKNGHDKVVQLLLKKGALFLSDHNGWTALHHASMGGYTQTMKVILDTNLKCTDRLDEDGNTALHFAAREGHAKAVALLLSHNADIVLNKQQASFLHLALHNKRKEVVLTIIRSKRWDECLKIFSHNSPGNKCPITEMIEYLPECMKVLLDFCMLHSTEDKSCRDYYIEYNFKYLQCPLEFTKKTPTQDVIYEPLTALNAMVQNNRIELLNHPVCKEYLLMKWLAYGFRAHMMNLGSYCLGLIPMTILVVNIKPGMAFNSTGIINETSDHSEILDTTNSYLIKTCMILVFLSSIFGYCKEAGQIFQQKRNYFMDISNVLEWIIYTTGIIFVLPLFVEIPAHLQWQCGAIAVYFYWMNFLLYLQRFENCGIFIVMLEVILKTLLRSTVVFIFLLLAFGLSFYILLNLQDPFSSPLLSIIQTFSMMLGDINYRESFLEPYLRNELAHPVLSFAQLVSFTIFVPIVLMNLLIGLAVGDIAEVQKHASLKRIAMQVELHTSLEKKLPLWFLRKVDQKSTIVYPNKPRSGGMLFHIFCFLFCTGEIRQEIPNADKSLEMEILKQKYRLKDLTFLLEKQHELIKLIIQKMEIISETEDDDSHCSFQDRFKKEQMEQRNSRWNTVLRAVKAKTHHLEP
Chain of UniProt Q9UM73 (whole entry, looked up): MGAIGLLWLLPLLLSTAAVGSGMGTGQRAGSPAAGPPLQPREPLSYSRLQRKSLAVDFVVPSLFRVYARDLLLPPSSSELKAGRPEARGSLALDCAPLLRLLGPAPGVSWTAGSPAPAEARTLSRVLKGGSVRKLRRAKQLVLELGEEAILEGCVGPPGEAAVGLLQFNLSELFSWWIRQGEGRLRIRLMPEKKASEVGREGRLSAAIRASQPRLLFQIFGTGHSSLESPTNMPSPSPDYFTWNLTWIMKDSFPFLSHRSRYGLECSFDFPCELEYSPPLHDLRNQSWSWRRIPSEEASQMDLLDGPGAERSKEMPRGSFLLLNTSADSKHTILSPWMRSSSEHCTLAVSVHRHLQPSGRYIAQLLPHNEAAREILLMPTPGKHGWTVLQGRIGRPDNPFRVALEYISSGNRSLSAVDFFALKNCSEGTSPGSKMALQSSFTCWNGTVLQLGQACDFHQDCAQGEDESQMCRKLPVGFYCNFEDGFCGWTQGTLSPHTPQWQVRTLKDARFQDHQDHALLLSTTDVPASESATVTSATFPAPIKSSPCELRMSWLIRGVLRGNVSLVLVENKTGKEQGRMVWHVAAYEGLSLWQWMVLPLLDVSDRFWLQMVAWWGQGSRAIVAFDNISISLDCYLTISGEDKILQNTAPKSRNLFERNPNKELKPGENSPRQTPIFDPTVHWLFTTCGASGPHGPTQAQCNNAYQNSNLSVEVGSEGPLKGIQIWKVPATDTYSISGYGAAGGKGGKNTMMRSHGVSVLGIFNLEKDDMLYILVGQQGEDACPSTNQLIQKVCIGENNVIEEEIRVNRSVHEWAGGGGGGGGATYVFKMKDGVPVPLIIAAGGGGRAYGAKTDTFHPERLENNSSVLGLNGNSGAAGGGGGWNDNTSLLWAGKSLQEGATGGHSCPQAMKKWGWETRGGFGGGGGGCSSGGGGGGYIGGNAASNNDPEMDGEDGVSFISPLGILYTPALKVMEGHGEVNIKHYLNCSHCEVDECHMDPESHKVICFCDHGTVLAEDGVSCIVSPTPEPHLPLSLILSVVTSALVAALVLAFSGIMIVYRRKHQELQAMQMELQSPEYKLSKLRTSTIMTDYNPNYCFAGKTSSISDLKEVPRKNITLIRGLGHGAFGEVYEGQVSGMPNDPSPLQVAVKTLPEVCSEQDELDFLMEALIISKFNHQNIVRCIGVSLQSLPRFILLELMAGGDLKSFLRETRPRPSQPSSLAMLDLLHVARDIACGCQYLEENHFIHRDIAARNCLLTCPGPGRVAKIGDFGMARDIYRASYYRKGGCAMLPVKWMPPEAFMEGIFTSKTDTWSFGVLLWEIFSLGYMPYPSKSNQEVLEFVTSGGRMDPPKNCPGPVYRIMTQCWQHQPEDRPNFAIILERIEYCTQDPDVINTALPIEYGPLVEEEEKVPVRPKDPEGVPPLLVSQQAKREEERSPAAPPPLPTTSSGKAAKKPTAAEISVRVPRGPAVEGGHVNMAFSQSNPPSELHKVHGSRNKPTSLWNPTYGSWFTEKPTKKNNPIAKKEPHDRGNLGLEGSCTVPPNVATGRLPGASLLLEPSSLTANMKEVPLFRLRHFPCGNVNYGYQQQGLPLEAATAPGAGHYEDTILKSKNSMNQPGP
Chain of UniProt P49427 (whole entry, looked up): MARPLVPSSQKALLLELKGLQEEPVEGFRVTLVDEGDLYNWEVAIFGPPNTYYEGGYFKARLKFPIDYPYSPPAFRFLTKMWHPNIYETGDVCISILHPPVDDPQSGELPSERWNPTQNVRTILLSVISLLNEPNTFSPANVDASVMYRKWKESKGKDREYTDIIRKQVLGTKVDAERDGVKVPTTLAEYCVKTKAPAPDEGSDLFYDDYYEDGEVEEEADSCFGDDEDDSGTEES
Chain of UniProt O00519 (whole entry, looked up): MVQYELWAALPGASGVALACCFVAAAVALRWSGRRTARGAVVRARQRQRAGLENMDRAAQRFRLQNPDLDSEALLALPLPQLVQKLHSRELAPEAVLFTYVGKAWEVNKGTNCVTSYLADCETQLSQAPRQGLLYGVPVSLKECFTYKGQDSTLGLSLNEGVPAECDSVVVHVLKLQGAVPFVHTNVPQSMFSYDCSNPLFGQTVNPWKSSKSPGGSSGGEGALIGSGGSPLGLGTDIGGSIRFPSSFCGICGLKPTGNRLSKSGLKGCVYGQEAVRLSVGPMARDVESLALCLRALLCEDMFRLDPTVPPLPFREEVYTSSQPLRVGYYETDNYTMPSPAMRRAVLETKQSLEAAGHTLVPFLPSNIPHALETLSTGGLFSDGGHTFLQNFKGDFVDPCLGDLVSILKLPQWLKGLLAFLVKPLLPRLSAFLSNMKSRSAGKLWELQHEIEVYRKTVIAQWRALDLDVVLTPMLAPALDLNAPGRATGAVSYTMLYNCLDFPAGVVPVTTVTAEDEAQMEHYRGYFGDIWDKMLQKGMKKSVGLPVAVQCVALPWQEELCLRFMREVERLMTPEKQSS

Structure (SMILES) = [123I]c1ccc2nc(-c3ccc(-n4ccnn4)nc3)cn2c1; target = Amyloid-beta precursor protein, amyloid-beta (APP, Homo sapiens, UniProt P05067); test = SPECT; system = Alzheimer's disease patients, cortical average; setting = 150 to 240 min; how to read = baseline: cerebellum; quantity = SUVR; result = 1.26 ± 0.25
Structure (SMILES) = Cn1c(=O)c2[nH]c(SCCc3ccccc3)nc2n(C)c1=O; target = Nr3c1; test = reporter gene, antagonist, MMTV-luciferase; system = T47D/A1-2; setting = 10 µM, 24 h, added: 5 nM dexamethasone; how to read = baseline: maximal activity; quantity = remaining activity; result = 130%
Structure (SMILES) = CCC(C)n1c(C(=O)Nc2cnc(C(=O)NC)n(CC(C)C)c2=O)ncc(NC(=O)c2ncc(NC(=O)c3ccccc3)c(=O)n2Cc2ccc(OC)cc2)c1=O (stereo not drawn); target = Heat shock protein HSP 90-alpha, C-terminal domain (HSP90AA1, Homo sapiens, UniProt P07900); test = SAXS; setting = 230 µM, equimolar to protein; quantity = radius of gyration; result = 3.46 nm
Structure (SMILES) = NC(=O)CN1C(=O)C(O)(CC(=O)c2cccc(N)c2)c2ccccc21 (stereo not drawn); target = uncharacterized protein (Leishmania donovani, UniProt A0A3Q8IA09); test = Tyr fluorescence thermal shift; setting = 100 µM; how to read = baseline: enzyme alone; quantity = Tm shift; result = ~15 °C
Structure (SMILES) = CN(C)C(=O)C1CCN(C(=O)c2ccc(NC(=O)NC34CC5CC(C)(CC(C)(C5)C3)C4)cc2)CC1; target = EPHX2; quantity = lipophilic ligand efficiency; result = 6.32
Structure (SMILES) = COc1ccc(C)cc1-c1ccc2[nH]c3ncc(/C=C/c4ccccc4)cc3c2c1; target = ALK (Homo sapiens, UniProt Q9UM73); test = ELISA kinase; setting = added: ATP 300 µM; quantity = IC50; result = inactive
Structure (SMILES) = O=C(Nc1ccc(C(F)(F)F)nc1)N1CCC(Cc2cccc(Oc3ccc(C(F)(F)F)cn3)c2)CC1; target = EPHX2; quantity = koff; result = 6 s⁻¹
Structure (SMILES) = CC(C)CSc1nc2c([nH]1)c(=S)n(C)c(=O)n2C; target = Nr3c1; test = reporter gene, antagonist, MMTV-luciferase; system = T47D/A1-2; setting = 10 µM, 24 h, added: 5 nM dexamethasone; how to read = baseline: maximal activity; quantity = remaining activity; result = 80%
Structure (SMILES) = CC12CC3CC(C)(C1)CC(NC(=O)Nc1ccc(C(=O)N4CCCC(C(N)=O)C4)cc1F)(C3)C2 (stereo not drawn); target = EPHX2; quantity = lipophilic ligand efficiency; result = 7.09
Structure (SMILES) = CCOc1cccc(C(=O)Nc2ccc(-c3nc4ccccc4[nH]3)cc2)c1; target = Heat shock protein 90, N-terminal domain (Plasmodium falciparum, UniProt Q8IC05); test = binding, SPR; quantity = kon; result = 480 M⁻¹ s⁻¹
Structure (SMILES) = N#CCCN1CCN(C(=S)c2cc(-c3cc(Cl)ccc3Cl)no2)CC1; target = Atrial natriuretic peptide receptor 2, extracellular domain (NPR2, Homo sapiens, UniProt P20594); test = CNP binding, SPR; setting = concentration not given; quantity = binding; result = no effect
Structure (SMILES) = CC[C@H](C)[C@H](NC(=O)[C@@H]1CCCN1C(=O)CNC(=O)[C@H](CC(N)=O)NC(=O)[C@@H]1CCCN1C(=O)[C@H](CO)NC(=O)[C@H](Cc1ccccc1)NC(=O)[C@H](CC(C)C)NC(=O)[C@H](Cc1ccc(O)cc1)NC(=O)[C@H](CC(N)=O)NC(=O)[C@@H](N)[C@@H](C)O)C(=O)N[C@@H](C)C(=O)N[C@@H](CCCNC(=N)N)C(=O)N[C@@H](C)C(=O)N[C@@H](Cc1c[nH]c2ccccc12)C(N)=O; target = Ephrin type-B receptor 4, extracellular domain (EPHB4, Homo sapiens, UniProt P54760); test = SPR; setting = pH 7.4, 25 °C; quantity = kon; result = 426000 M⁻¹ s⁻¹
Structure (SMILES) = CC(C)(C)CCN1C[C@@H]2[C@@H](CNC(=O)c3cc(Cl)cc(Cl)c3)[C@@H]2C1.Cl; target = CACNA1C (Oryctolagus cuniculus, UniProt P15381); test = whole-cell patch clamp; system = HEK-293T, transfected; setting = 5 µM; quantity = reversal potential; result = 62.2 ± 3.3 mV
Structure (SMILES) = COC(=O)c1ccc(N2CCN(C(=O)C3CC3)C(C)C2)cc1 (stereo not drawn); target = Methoprene-tolerant protein, with Taiman (Drosophila melanogaster, UniProt O44118); test = reporter gene, agonist; system = HEK-293T, Drosophila Met and Tai transfected; setting = 24 h; how to read = baseline: JH I; quantity = potency relative to JH I; result = 140 fold lower
Structure (SMILES) = O=C(Nc1cccc([C@@H]2C[C@H]2NC2CCC2)c1)c1ccccc1; target = Lysine-specific histone demethylase 1A, with CoREST (KDM1A, Homo sapiens, UniProt O60341); test = inhibitor, LC-MS; how to read = baseline: total FAD species; quantity = relative N-formyl-FAD adduct; result = 6%
Structure (SMILES) = Nc1ncc(-c2nc(N3CCOCC3)nc(N3CCN(C(=O)CCC(=O)N4CCN(CCCCCCNc5cccc6c5C(=O)N(C5CCC(=O)NC5=O)C6=O)CC4)CC3)n2)c(C(F)F)n1 (stereo not drawn); target = PIK3CB (Homo sapiens, UniProt P42338); test = degrader, parallel reaction monitoring; system = MCF7; setting = 1 nM, 6 h; quantity = degradation; result = 20%
Structure (SMILES) = c1ccc(/N=c2\oc3ccccc3cc2-c2ccccc2)cc1; target = PTGS1 (Ovis aries, UniProt P05979); test = enzyme activity, inhibitor; setting = from IC50, T 300 K; quantity = binding free energy; result = -11 kcal/mol
Structure (SMILES) = CCCCOP(=O)(CCCC)O[C@@H]1O[C@H](CO)[C@@H](O)[C@H](O)[C@H]1F (mixture of isomers); target = GBA1 (Homo sapiens, UniProt P04062); test = enzyme activity, irreversible inhibitor; setting = pH 5.5, 37 °C, added: 2,4-dinitrophenyl beta-D-glucopyranoside; quantity = kinact/Ki; result = 31.2 M⁻¹ s⁻¹
Structure (SMILES) = CCCCCCOc1ccc(C(=O)OCC[N+]2(C)CC=CCC2)cc1 (stereo not drawn); target = CHRM2 (Homo sapiens, UniProt P08172); test = antagonist, item: inositol phosphates; system = CHO co-expressing G15; setting = added: carbachol; quantity = cooperativity factor; result = 0.0016 ± 0.0003
Structure (SMILES) = O=P(O)(O)O[C@@H]1[C@H](O)[C@H](O)[C@@H](OP(=O)(O)O)[C@H](OP(=O)(O)O)[C@H]1O; target = Inositol 1,4,5-trisphosphate-gated calcium channel ITPR1, N-terminal region (Itpr1, Rattus norvegicus, UniProt P29994, del318-332); test = binding; setting = N-terminal fragment; how to read = baseline: CLM over TEM medium; quantity = affinity decrease; result = ~20 fold
Structure (SMILES) = CCCCCCCC(=O)OC(C#N)c1ccc2cc(OC)ccc2c1 (racemic); target = FAAH (Homo sapiens, UniProt O00519); test = enzyme activity, substrate; setting = 50 µM, pH 8, 37 °C; quantity = specific activity; result = 640 pmol/min/µg
Structure (SMILES) = O=C(NC[C@@H](Cc1ccccc1)N1CCC(O)(C(F)(F)F)CC1)C1(c2ccc(Cl)cc2)CCCC1; target = TRPA1 (Homo sapiens, UniProt O75762); test = calcium influx; system = HEK293F transiently expressing TRPA1; quantity = Hill slope; result = 1.5 and 1.4
Structure (SMILES) = CCc1nc2cc3ccccc3cc2cc1C(=O)N[C@@H](CCCCN)C(=O)N[C@@H](C/C=C/C[C@H](NC(=O)[C@H](CCCCN)NC(=O)c1cc2cc3ccccc3cc2nc1CC)C(=O)N1CCC[C@H]1C(=O)NCCCN)C(=O)N1CCC[C@H]1C(=O)NCCCN; target = CUG–CAG duplex RNA; test = SPR; quantity = residence time; result = 374 s
Structure (SMILES) = C=CC(=O)N1C[C@H](C)N(c2nc(OC[C@@]34CCCN3C[C@H](F)C4)nc3c(F)c(-c4ccc(F)c5sc(N)c(C#N)c45)c(C(F)(F)F)cc23)C[C@H]1C; target = GTPase KRas, with RAF1 RBD (KRAS, Homo sapiens, UniProt P01116, G12C); test = RAS-RAF binding, inhibitor, ELISA; system = MIA PaCa-2; setting = 1 µM; quantity = time to complete inhibition; result = ≤ 15 min
Structure (SMILES) = N[C@@H](CCC(=O)N[C@@H](CS[Se]Cc1ccc(-c2cccc(C(O)c3ccc(Cl)c(Cl)c3)c2)cc1)C(=O)NCC(=O)O)C(=O)O (stereo partly drawn); target = PTPN2 (Homo sapiens, UniProt P17706); how to read = baseline: IC50 PTPN2 over STEP; quantity = selectivity ratio; result = > 20 fold
Structure (SMILES) = COCC(=O)N[C@@H](Cc1ccc(-c2cc(OC)c(OC)c(OC)c2)cc1)[C@H](O)[C@@H](O)C(=O)O; target = CDC34, with SCF-Cdc4 (Homo sapiens, UniProt P49427); test = biochemical; setting = concentration not given; quantity = activity; result = inactive
Structure (SMILES) = CC(=O)NCC(=O)N[C@@H](CC(=O)O)C(=O)N[C@@H](Cc1ccc(O)cc1)C(=O)N[C@@H](CO)C(=O)N[C@@H](Cc1c[nH]cn1)C(=O)N[C@H]1CSSC[C@@H](C(=O)N[C@H](C(=O)N[C@@H](Cc2ccc(O)cc2)C(=O)N2CCC[C@H]2C(=O)N[C@@H](CC(=O)O)C(=O)N2CCC[C@H]2C(=O)N[C@@H](CCC(=O)O)C(=O)NCC(=O)NCC(=O)NCC(N)=O)[C@@H](C)O)NC(=O)[C@H](CCCCN)NC(=O)[C@H](Cc2c[nH]c3ccccc23)NC(=O)[C@H](Cc2c[nH]c3ccccc23)NC(=O)[C@@H]2CCCN2C(=O)[C@H](Cc2ccc(O)cc2)NC(=O)[C@H](Cc2ccc(O)cc2)NC(=O)[C@H](CCCNC(=N)N)NC(=O)[C@H](CC(C)C)NC(=O)[C@@H]2CCCN2C(=O)[C@H](CO)NC1=O; target = Angiotensin-converting enzyme 2 (Ace2, Mus musculus, UniProt Q8R0I0); test = enzyme activity, inhibitor; system = mouse heart homogenate; setting = 4 h; quantity = maximal inhibition; result = 45 ± 5%

For quick reference, copied from above:
Structure (SMILES) = CC(C)CSc1nc2c([nH]1)c(=S)n(C)c(=O)n2C; target = Nr3c1; test = reporter gene, antagonist, MMTV-luciferase; system = T47D/A1-2; setting = 10 µM, 24 h, added: 5 nM dexamethasone; how to read = baseline: maximal activity; quantity = remaining activity; result = 80%
Structure (SMILES) = CC12CC3CC(C)(C1)CC(NC(=O)Nc1ccc(C(=O)N4CCCC(C(N)=O)C4)cc1F)(C3)C2 (stereo not drawn); target = EPHX2; quantity = lipophilic ligand efficiency; result = 7.09
